Measurements collected from several papers.
Every numbered part comes from another study and shows a few of its results, in no order. Changes are numbered by the printed parent chain.

Set 1
Target: CCNF, cyclin fold, Cln2 fusion (human)
Technique: yeast growth competition, sequencing
Sample: yeast
Notes: strong parent motif
Reference: not given
Reading: higher = stronger binding
Starting sequence: SLBP docking peptide (human); ARYKRKLLINDFG
Substitution	normalised enrichment score
Y3K	-0.0967
Y3H	0.993
D11G	1.87

Set 2
Target: Histone acetyltransferase KAT6A, winged helix 2, GST fusion (KAT6A, Homo sapiens, UniProt Q92794, residues 85-181)
Technique: protein binding microarray
Molecule type: double-stranded DNA, one strand shown
Sample: in vitro
Concentration: not given
Notes: 8-mer, flanks averaged, mean of 2 arrays, mostly near background
Reference: not given
Reading: higher = stronger binding
Target sequence (chain): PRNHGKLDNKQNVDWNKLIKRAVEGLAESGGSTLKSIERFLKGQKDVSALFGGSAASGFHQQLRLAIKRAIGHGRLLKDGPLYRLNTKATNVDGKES
Strand	E-score
GTTGTAAA	-0.0599
ACAAGGCA	-0.0744
GGCCTAGA	-0.201
GAAGTTTA	0.0743
AGCTGGCA	0.0642

Set 3
Target: Centromere-binding protein 1, full length, N-terminal tag (CBF1, Saccharomyces cerevisiae, UniProt P17106, residues 1-351)
Chain of UniProt P17106 (whole entry, looked up): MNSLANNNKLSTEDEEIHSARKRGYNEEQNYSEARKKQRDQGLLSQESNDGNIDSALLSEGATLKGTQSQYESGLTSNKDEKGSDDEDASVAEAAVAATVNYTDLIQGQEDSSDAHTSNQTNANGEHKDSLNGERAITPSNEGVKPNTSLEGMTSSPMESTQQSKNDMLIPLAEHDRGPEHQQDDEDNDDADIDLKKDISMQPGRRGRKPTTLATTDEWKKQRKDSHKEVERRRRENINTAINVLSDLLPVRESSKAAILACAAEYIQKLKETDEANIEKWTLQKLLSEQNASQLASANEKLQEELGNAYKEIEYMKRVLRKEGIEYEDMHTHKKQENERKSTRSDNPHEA
Technique: protein-binding microarray
Molecule type: double-stranded DNA, one strand shown
Sample: in vitro
Concentration: 0.8 µM
Notes: whole 60-bp probe, no competitor
Reading: higher = stronger binding
All sequences stand within: … GTCTTGATTCGCTTGACGCTGCTG
Strand	fluorescence intensity [a.u.]
GAATTGCGCTAGCTTCAGCTGATGTGCCATGTATAG	503
CTAGAAAGGCTGTTACATGATCACTAATCGTAATTC	524
GAATTGGAAACCAAACAGGAGATACAAATGGGTTAG	537
GAACAATCAACCGTACACGCGGTACTTATCCAGTAG	559
GAAAGAATATAGTGACACCAAACCATAGAACGCTAG	518
GAAAAAATCCCCAGGCGGGTGACACTTAAGTACTAG	477
CTAGAAATTTCCCGCCACATGAACTGAGTCAGGTTC	597
CCTAACTACTATAGAGGTGACATATAGCTTCGTACA	525

Single results of other studies
Molecule	target	assay	system	setting	scale	measurement	value
PhoQ, residues 284 288 289 292 302 303 AAQSYM	PhoP, residues 12 14 15 18 19 QYCSL (Escherichia coli, UniProt P23836)	Sort-seq, measured: YFP reporter	E. coli	PhoQ-PhoP variant library, with: 10 µM Mg2+	reference: high Mg2+ state, higher = stronger signaling	fold induction	3.71

Some of these lines once more (set 3):
Strand	fluorescence intensity [a.u.]
GAAAGAATATAGTGACACCAAACCATAGAACGCTAG	518
CCTAACTACTATAGAGGTGACATATAGCTTCGTACA	525
GAATTGGAAACCAAACAGGAGATACAAATGGGTTAG	537
